Experimental data from different studies.
Every numbered part comes from another study and shows a few of its results, in no order.

Study 1
Target: Centromere-binding protein 1, full length, N-terminal tag (CBF1, Saccharomyces cerevisiae, UniProt P17106, residues 1-351)
Chain of UniProt P17106 (whole entry, looked up): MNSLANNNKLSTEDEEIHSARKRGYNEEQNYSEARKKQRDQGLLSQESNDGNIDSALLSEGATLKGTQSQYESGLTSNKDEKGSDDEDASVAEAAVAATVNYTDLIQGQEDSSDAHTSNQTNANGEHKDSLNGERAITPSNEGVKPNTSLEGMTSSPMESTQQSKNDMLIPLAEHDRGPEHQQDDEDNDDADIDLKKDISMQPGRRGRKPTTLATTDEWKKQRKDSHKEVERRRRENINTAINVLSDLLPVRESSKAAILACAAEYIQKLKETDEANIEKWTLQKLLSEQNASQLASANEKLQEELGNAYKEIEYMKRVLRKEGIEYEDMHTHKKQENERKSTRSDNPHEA
Method: protein-binding microarray
Molecule type: double-stranded DNA, one strand shown
Matrix: in vitro
Concentration: 0.8 µM
Setting: whole 60-bp probe, no competitor
Direction: higher = stronger binding
Shared flanks, not repeated: … GTCTTGATTCGCTTGACGCTGCTG
| Sequence | fluorescence intensity |
| --- | --- |
| GAAATAGGCAAGTGTCATGTGCCCTAACAGAAATAG | 1660 a.u. |
| CTAACCCGTCTCCGTCACGTGAAGTAAAAATTTTTC | 14200 a.u. |
| GAATTATCAATAAATCACCTGCACACGCTGTCCTAG | 1040 a.u. |
| GAACTTTTTTTTGCAATCGTGATTACAGAAAAATAG | 754 a.u. |
| CTACAGCATCCGTGTTTCGTGACATCATTGAAGTTC | 588 a.u. |
| CTACAAGAAAAAGGTGACCCACGGTGGTGGGAATTC | 508 a.u. |
| GAAAGTTATGACATTCACACCACTTTAGAATTTTAG | 536 a.u. |
| CTACCCCACTTCCATCACGTCCATACCAGGTGCTTC | 551 a.u. |
| CTATATAATGCAAATTACGTGAGCCGCTCTTGTTTC | 517 a.u. |
| GAACCTACATACTTGATCGTGACTTCTTGATTCTAG | 779 a.u. |
| CTATAGTGGGAAGGACTGATGATGAATTCCCGTTTC | 522 a.u. |
| CTACCGATTAAAGTGGTCGTGATTCAGTATTTTTTC | 768 a.u. |
| CTAGCATTATAGCGCCACATGCGATGAACCTGATTC | 564 a.u. |
| CTATTTTGAAGTGGTGACGTTACCGCTCTTCGTTTC | 520 a.u. |
| CTAGATGTAATCCATCACCCCCCTATAAAAACATTC | 517 a.u. |
| GAACTATGGTTCTGTCACGGGGAGAGATAAGAATAG | 1410 a.u. |
| CTAGGAATGAAACATTATCACGTACAAGATGAATTC | 584 a.u. |
| TGTACGAAGCTATATAACGTGGGTATAGTAGTTAGG | 556 a.u. |
| GAATTGCCTCGATTGCATGTGACAAAAGTGCAATAG | 2030 a.u. |
| GAAAAGAACAATATTCGGGTGACGCCGCCCCTGTAG | 483 a.u. |
| GAACACGTGGCTGCACACGTGAATGAAAAAGAATAG | 9340 a.u. |
| GAACAAGCGAAACACCACGCAAACACAAGTTGTTAG | 514 a.u. |
| CTAGATCTCAGAAGGCATGTGAAAAAAAATTCGTTC | 732 a.u. |
| CCTAACTACTATAGTGATGCAGTATAGCTTCGTACA | 531 a.u. |
| CTAAACCTAATGCTACTGATCACAGCAATAAGGTTC | 497 a.u. |

Study 2
Target: Histone acetyltransferase KAT6A, both winged helices, GST fusion (KAT6A, Homo sapiens, UniProt Q92794, residues 1-181)
Method: protein binding microarray
Molecule type: double-stranded DNA, one strand shown
Matrix: in vitro
Concentration: not given
Setting: 8-mer, flanks averaged, mean of 2 arrays, mostly near background
Reference: not given
Direction: higher = stronger binding
Target sequence (chain): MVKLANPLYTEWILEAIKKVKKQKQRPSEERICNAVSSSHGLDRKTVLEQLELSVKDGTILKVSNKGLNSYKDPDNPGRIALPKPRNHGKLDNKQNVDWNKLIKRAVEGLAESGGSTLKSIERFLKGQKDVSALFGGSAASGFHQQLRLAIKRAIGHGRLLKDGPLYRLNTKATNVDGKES
| Sequence | E-score |
| --- | --- |
| CTAATGCA | -0.0203 |
| CCTCTACG | -0.0448 |
| CAAACATA | -0.137 |
| CCCACTTC | -0.139 |
| GGAATCAA | 0.0966 |
| CGCGGCAC | 0.31 |
| CCGGCCTA | 0.0812 |
| AGCGCGTA | 0.33 |
| TCGGATAA | 0.116 |
| AACAGATT | -0.115 |
| ACGCACAT | 0.0765 |
| CTTACTAA | -0.131 |
| GGGACAAC | -0.0338 |
| CCTTTCGA | -0.0338 |
| GAACGGTA | 0.131 |
| AGGGTTTG | -0.153 |
| CAGAAAGC | -0.0337 |
| ACGGCAAG | 0.19 |

Study 3
Target: Hepatocyte nuclear factor 3-alpha (Foxa1, Mus musculus, UniProt P35582, residues 1-468, full length assumed)
Method: EMSA with sequencing
Molecule type: double-stranded DNA, one strand shown
Matrix: in vitro
Concentration: 10 and 20 nM
Setting: whole designed probe, mean of two concentrations, ends assumed
Reference: negative control set to 0
Direction: higher = stronger binding
Shared flanks, not repeated: GTGAGCGGTGCCCATTGATGGGGAAC … TTTCACTGGGATCGTGGGGAC
Residues (chain): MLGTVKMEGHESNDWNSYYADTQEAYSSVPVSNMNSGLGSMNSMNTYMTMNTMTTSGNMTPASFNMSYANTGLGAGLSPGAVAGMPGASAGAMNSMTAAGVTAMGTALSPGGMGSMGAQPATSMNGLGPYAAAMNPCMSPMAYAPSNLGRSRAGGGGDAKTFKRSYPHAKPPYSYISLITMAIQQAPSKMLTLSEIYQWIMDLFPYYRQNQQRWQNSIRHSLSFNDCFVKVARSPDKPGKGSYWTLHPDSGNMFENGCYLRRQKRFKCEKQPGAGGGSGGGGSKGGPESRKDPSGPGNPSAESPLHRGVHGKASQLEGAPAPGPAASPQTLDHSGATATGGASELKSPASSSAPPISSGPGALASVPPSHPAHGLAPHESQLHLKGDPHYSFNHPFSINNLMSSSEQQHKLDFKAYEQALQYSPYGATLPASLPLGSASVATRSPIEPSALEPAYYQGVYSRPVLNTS
| Sequence | normalised bound fraction [ratio] |
| --- | --- |
| ATCTTCCCCCTCTTCCTTGCCCCACCAGCTCACCTACGGGGGTTATTTGCAGATAGGAAAATAAATAAAGCCGGCATTCGTTAACGCAGTTCTGGCGCAAACTGCTGTTTGCTCTGCATCTAACATGGTCCTTACGCGACGCCAGGCTCCGGGAGAGCAAAGCACCGTGTCAGGCGCATGATCCGGGCTCGCC | 0.355 |
| GGTCAGTTCCCTCCATCCTCATCCCAAGCCCAACAGTAGCTTGACTGACAGTGGCCCCCATCCCAGCATAGTTCCAAGAGGCCCTAACTGACCTTGTTTACATTGCATGGAAATGCCTCTGCACTGCAGAACTTTCAGTTTCAGGGTTTTGCAAATTTTATGAGAATTTTCAGACAAGCTGATTTTTAGCTCC | 0.412 |
| ATTTATAAAAAGAGGAAATTATTCATGCCATCAGCACTCCCCATCAATAACAGGAGGAAACCTAACTATCTCATTACCCCATCACACTGTGTGCAAACAGAACTGCCCGTTGTTGACAATAAATATTTGATAAGTGAGGAAACAGGAAGGATAAACCAAGGGTGCAGAGTGGAGCTGCACAGTTGCCAGGAGA | 0.28 |
| TATACTTGCATTTAATTTATACTAATTCTACTATGTGTTTCACCAAAAATAAATTGAAAAGGATACTGCTCACTCAGTGAACACATGCTCCAGAGTAATCTTGAAATGAGCAATGTGAATGGGGCATTCACGTTTCACAAATTGAACAGTTTTGATGGTGAGGGCAAAGTGTCACTCACCCTTATGCTTATGA | -0.0351 |
| TCACGCTATCCAGCTCAGCACTTGGCAAACATTAGCTCACCACAAGAATGCATCCTCAGGTTTTTAAGTCAGACAAGGGCTTCATAGCAGTTCTATTGACATTGGGGATGAACAGTTCCTTGCGGTGGGGGCTGTTCTGTGCATTGTGAGACGCTCAGCAGCATCCACGTGGCCTCTTTCCACTAGATGCCAA | 0.373 |
| ATGTGCTAAAAATACAAGACTTGCTTACGCAGAGAGCCGGGAGCTATGTTCCAGTGAGGGTGGAAACAAAAGCCTCAGTATAAGACTGTCAGGTGTTTACACTTGCTCATGTGGCAACACAAGGGTGTGGTGAGGTTGCTGGACTCCACATGCTGAGGCTCAAAGTAGAAATCACTGATCTTATGTCACATAT | 0.167 |
| TCTTTCACTCAAGTGGTATATCCCACAGCCCTAAAGAAGCAAGGGAAATAAGAATTAGAACTAGACATCCCAGGAGACAAAGAATTCAACAAAGCAATCTCACTTCCTGCTTAACCAATCCCTTCACAAATTACAGAAAATCTCTCTGGCTCAGGCCGGGCAGTGAGTTCATTTATTTCAACAAAATCAAAGA | 0.00616 |
| AGGCACAAGGTATGAATCACTAAGAATCTAGCAGCAGCTCTAGAAGCCTCCAAAGATAATTGCACTTCCCCAACAGGGGGACGGGCGTCGAGTGTAAATATGAAAGAACAGTGGATGGCCTAAATCAGTATGTGTCACTCTTTGTAAAGAGCCACAAGTGTTTGACTAGGGAAAAAGGAAAAGAGGCGAGAGT | 0.174 |

Study 4
Target: RNA binding protein fox-1 homolog 2, RRM domain, GST-SBP tag (RBFOX2, Homo sapiens, UniProt O43251-10, residues 100-194)
Method: RNA Bind-n-Seq
Molecule type: RNA
Matrix: in vitro
Concentration: 365 nM
Setting: natural RNA segment, single round, ends assumed
Reference: no-protein control
Direction: higher = stronger binding
Shared flanks, not repeated: GGGAGUUCUACAGUCCGACGAUC … UGGAAUUCUCGGGUGCCAA
Construct (chain): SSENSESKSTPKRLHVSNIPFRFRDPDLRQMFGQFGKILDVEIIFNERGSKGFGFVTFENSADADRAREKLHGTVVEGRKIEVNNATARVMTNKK
| Sequence | RBNS enrichment (R) |
| --- | --- |
| CCACAAAGGUGCUGGGUGGCUCUCCGGACAGGAGCUGGCCUGACUCUCACUCCUCUGAGGCUUUCCUGGGGCCUCCUCCCAUCCUGCCAUGAGCAAUUGUUUGCUCUUGA | 0.46 |
| AUGUGUUUGUCUCUGCUGCUUGACCUCAUGGGAUGUACCCUCCAGUUCAACUGCCCAAAACAGACAGCCCCUUCCAAGCACCGUUCUUUGACAGCGGUAGCAGCUACCUA | 0.364 |
| UAAACUGUAUCAUACAGUAAUGCCAGCAUUUUUAUUUAAUAGGUCAUCGUCUUCCUUUUAUAGCUGUUUUACUUCAUUGAAUACGAUCAUGUACCCAGUGUUAACUCUUU | 0.682 |
| GGUCAGGGCUUAUAGCAGGAUGUCUGGCUGCACCUGGCAUGACUGUUUGUUUCUCCAAGCCUGCUUUGUGCUUCUCACCUUUGGGUGGGAUGCCUUGCCAGUGUGUCUUA | 0.594 |
| AUAAAUGUAUAUCUUGAAAAAGAUAUAGGUCACAGGUGGCUUAACUCUCCCUAGUUCUCAGUAGAAUAGUUCAAACAAUAUUACUUAUGUUAAUUAGAAGGGGCUUUUGU | 0.431 |
| AUUCGUCACCGUCUUUGGGCUGAAAAAGAAACCCUUCUGAUUACCUUCAUGACGGGAACCUAAGGACGAAGCCUACAGGGGCAAGGGCCGCUUCGUAUUCCUGGAAGAAG | 0.586 |
| CUGCAGAGUAUAGGGGCCUGAAAGUUUUAUGAAACGGGUGUAAUAUCUCCUCUGCCUGUGACUUGGGUGGGACUGUCAUUGUGGGUAGCCAUUUAUUGAAUUCAACUUUU | 0.675 |
| CCCUCCCCGCAACCCUGCCCCACCUUGCAUCCAGGGUAUGGUGUAAAUAAACCUGUGUUGCCAUGGCAACAGAGACCGGCGGUACCUGCCCCAAGCAAAGGACACCCCUG | 1.39 |
| CAAAGCAUGUGAAUUCUGGCAUUAGCUCUCAUAGGAGACCCAUGUGCUUCCUUGCUCAGUGCAAAACUGAUGAUUCUACUUGCUGUAGAUGAAUGGUUAACACGAGCUAG | 4.2 |
| AGGGCCAAUGCACCCCCGCCUCACACACGCACUCCUUCUCCUCAAGGCCAGGGCAGAGGGCCUCACCGCCUCCCGGGCCUGCUGUCAGCUUGCAGCCCGGGGACAGAGGC | 0.948 |
| AAUAAGAAAAGAGGACUUAAUUCUGAUCUUUUCUAAGCCAAGAGCAGAAAAGACUUCUUAAAUCCACUCCAGGGAAUACUUGAAAGGCAAGUCAUUGUGACUAACACUUC | 0.191 |
| GCCAAGGUAGGGGUGGUCUCAGACCCUCCUGGGUCCCCUGACCAUACAGGGCCUGGUGGUCUGCUCCAUCUGGCCCCUGGCCCAUCUCUUCUGUGCCUUAGUCACAUAUG | 0.202 |

A few entries again (study 1):
| Sequence | fluorescence intensity |
| --- | --- |
| CTACCGATTAAAGTGGTCGTGATTCAGTATTTTTTC | 768 a.u. |
| CTACCCCACTTCCATCACGTCCATACCAGGTGCTTC | 551 a.u. |
| CTATTTTGAAGTGGTGACGTTACCGCTCTTCGTTTC | 520 a.u. |
| CTAAACCTAATGCTACTGATCACAGCAATAAGGTTC | 497 a.u. |
| CTAACCCGTCTCCGTCACGTGAAGTAAAAATTTTTC | 14200 a.u. |
| GAAAGTTATGACATTCACACCACTTTAGAATTTTAG | 536 a.u. |
| GAACAAGCGAAACACCACGCAAACACAAGTTGTTAG | 514 a.u. |
